Measurements from different studies.
Each line is one published result; not all experiments were run side by side.
RPS6KA3 N-terminal kinase domain: Ribosomal protein S6 kinase alpha-3, N-terminal kinase domain (RPS6KA3, Homo sapiens, UniProt P51812)
RPS6KA3 C-terminal kinase domain: Ribosomal protein S6 kinase alpha-3, C-terminal kinase domain (RPS6KA3, Homo sapiens, UniProt P51812)

| Structure (SMILES) | target | assay | conditions | scale | remaining binding |
| --- | --- | --- | --- | --- | --- |
| CCN1CCN(Cc2ccc(C(=O)Nc3ccc(C)c(NCc4cnc5[nH]ccc5c4OC)c3)cc2C(F)(F)F)CC1 | RPS6KA3 N-terminal kinase domain | binding, competition with immobilised ligand | 1 µM |  | 68% |
| CN1CCN(Cc2ccc(NC(=O)c3cccc(C#Cc4cnc(N)c5ncccc45)c3)cc2C(F)(F)F)CC1 | RPS6KA3 N-terminal kinase domain | cell-free assay, competition with immobilised ligand | 50 nM |  | 77% |
| Nc1ncc2c(n1)-c1c([nH]c3ccc(C4=CCOCC4)cc13)CCC2 | RPS6KA3 C-terminal kinase domain | binding, competition with immobilised ligand | 1 µM |  | 100% |
| COc1c(Cl)cccc1Nc1c(-c2ccncc2C#C[C@@]2(C)CCCN2C(=O)/C=C/CN(C)C)[nH]c2c1C(=O)NCC2 | RPS6KA3 N-terminal kinase domain | binding, competition with immobilised ligand | 3 µM |  | 47% |
| CNC1C[S+]2CC[S+]3CC[S+](C1)[Ru-4]321([N]=C=S)[n]2c3ccc(OC)cc3c3c4c(c5cc(F)c[n+]1c5c32)C(=O)NC4=O (centres unmarked) | RPS6KA3 C-terminal kinase domain | KinomeScan | 0.1 µM | reference: untreated | 100% |
| CNS(=O)(=O)Nc1nccc(Cc2c(C)c3ccc(Oc4ncccc4F)cc3oc2=O)c1F | RPS6KA3 N-terminal kinase domain | binding, competition with immobilised ligand | 10 µM |  | 51% |
| Cc1c[nH]c2nccc(-c3ccc(C(=O)N[C@@H]4c5c(F)cc(C(F)F)cc5C[C@@H]4O)cn3)c12 | RPS6KA3 N-terminal kinase domain | binding, competition with immobilised ligand | 3 µM |  | 5.1% |
| CNC(=O)C1CCN(c2cc(C)c(F)cc2NC(=O)c2ccc(-c3cc(O)ccc3C)c(C)c2)CC1 | RPS6KA3 C-terminal kinase domain | binding, competition with immobilised ligand | 1 µM |  | 95% |
| COc1cc(Nc2nccc(-c3cnn4nc(OC)ccc34)n2)cc(C(F)(F)F)c1 | RPS6KA3 C-terminal kinase domain | binding, competition with immobilised ligand | 1 µM |  | 70% |
| C=CC(=O)N1CCCC(n2c(=O)c3ncccc3n(Cc3ccc(Oc4ccccc4)cc3)c2=O)C1 (centres unmarked) | RPS6KA3 C-terminal kinase domain | binding, competition with immobilised ligand | 1 µM |  | 98% |
| COc1cc(Nc2nc(C)cc(-c3cnn4nc(OC)ccc34)n2)cc(C(F)(F)F)c1 | RPS6KA3 N-terminal kinase domain | binding, competition with immobilised ligand | 1 µM |  | 77% |
| Cc1cnc2nc1Nc1cccc(c1)COC/C=C/COCc1cc(ccc1OCCN1CCOCC1)N2 | RPS6KA3 N-terminal kinase domain | binding, competition with immobilised ligand | 0.1 µM |  | 65% |
| C=CC(=O)N1CCc2ccc(-n3c(=O)ccc4cnc5ccc(-c6cnn(C)c6)cc5c43)cc21 | RPS6KA3 C-terminal kinase domain | KINOMEscan | 1 µM | reference: DMSO control | 100% |
| CC(C)=CC1OC(C)(C)C2C=C3C(=O)C(Cl)=CC(O)C3C3C(O)C4OC4C(=O)C132 (centres unmarked) | RPS6KA3 C-terminal kinase domain | cell-free assay, competition with immobilised ligand | 10 µM |  | 88% |

Some of these lines once more:
| Structure (SMILES) | target | assay | conditions | scale | remaining binding |
| --- | --- | --- | --- | --- | --- |
| CCN1CCN(Cc2ccc(C(=O)Nc3ccc(C)c(NCc4cnc5[nH]ccc5c4OC)c3)cc2C(F)(F)F)CC1 | RPS6KA3 N-terminal kinase domain | binding, competition with immobilised ligand | 1 µM |  | 68% |
| CN1CCN(Cc2ccc(NC(=O)c3cccc(C#Cc4cnc(N)c5ncccc45)c3)cc2C(F)(F)F)CC1 | RPS6KA3 N-terminal kinase domain | cell-free assay, competition with immobilised ligand | 50 nM |  | 77% |
